# Measurements from different studies.
# Each line is one published result; not all experiments were run side by side. Numbers after ± are the reported error.
# EPHX2: Bifunctional epoxide hydrolase 2 (EPHX2, Homo sapiens, UniProt P34913)
# SNCA: Alpha-synuclein (SNCA, Homo sapiens, UniProt P37840)
# CES2: Cocaine esterase (CES2, Homo sapiens, UniProt O00748)
Compound,target,test,test system,setting,how to read,endpoint,result
CC1=CC(C)=[N+]2C1=C(CCCCc1cn(C[C@@H]3[C@@H](O)[C@H](O)[C@@H](O)[C@@H]4O[C@H]34)nn1)c1c(C)cc(C)n1[B-]2(F)F,"GBA1 (Homo sapiens, UniProt P04062, R534H)","thermal stability, tryptophan fluorescence",,"saturating, pH 5.2",,Tm increase,21 °C
CCOC(=O)C1CCN(C(=O)c2ccc(NC(=O)NC34CC5CC(C)(CC(C)(C5)C3)C4)cc2)CC1,EPHX2,,,,,lipophilic ligand efficiency,5.76
O=C(Nc1ccc(C(=O)Nc2ccc(C(=O)Nc3ccc(S(=O)(=O)O)c4cc(S(=O)(=O)O)cc(S(=O)(=O)O)c34)cc2)cc1)Nc1ccc(C(=O)Nc2ccc(C(=O)Nc3ccc(S(=O)(=O)O)c4cc(S(=O)(=O)O)cc(S(=O)(=O)O)c34)cc2)cc1,"Neutrophil elastase (ELANE, Homo sapiens, UniProt P08246)",substrate S-1384 hydrolysis,,"pH 7.4, 37 °C, enzyme 400 nM",,Km,250 ± 31.7 µM
S=C(c1ccc(-c2cc(Cl)ccc2Cl)o1)N1CCN(CCc2ccccn2)CC1,"NPR2 (Homo sapiens, UniProt P20594)","HTRF, item: cGMP",HEK293 overexpressing GC-B,together with: subthreshold CNP,relative to: saturating CNP,Emax,148%
CC12CC3CC(C)(C1)CC(NC(=O)Nc1ccc(C(=O)N4CCN(S(C)(=O)=O)CC4)cc1)(C3)C2,EPHX2,,,,,lipophilic ligand efficiency,7.27
CC(C)C[C@@H]1NC(=O)[C@H](CCCCN)NC(=O)[C@H](Cc2c[nH]cn2)NC(=O)[C@H](Cc2c[nH]c3ccccc23)NC(=O)CNC(=O)[C@H](CC(C)C)NC(=O)[C@@H](Cc2ccc(O)cc2)NC(=O)CSC[C@@H](C(=O)NCC(=O)N[C@@H](CCCCN)C(=O)N[C@@H](CCCCN)C(=O)N[C@@H](CCCCN)C(N)=O)NC(=O)[C@H](CO)NC(=O)[C@H](CCCNC(=N)N)NC(=O)CNC(=O)[C@H](Cc2ccc(O)cc2)NC(=O)[C@@H]2CCCN2C(=O)[C@H](CCC(N)=O)NC(=O)[C@H](Cc2ccccc2)NC(=O)[C@H](Cc2c[nH]c3ccccc23)NC1=O,SNCA,FRAP,,"200 µM, 2 min, room temperature, droplets",,fluorescence recovery,~94%
C[C@@H]1O[C@@H](O[C@H]2C(=O)c3c(O)cc(O)cc3O[C@@H]2c2ccc(O)c(O)c2)[C@H](O)[C@H](O)[C@H]1O,"SLC5A2 (Homo sapiens, UniProt P31639)",inhibitor,COS-7 expressing SLC5A2,50 µM,relative to: control,1-NBDG uptake,37.1 ± 2.99%
C=C(O[C@H]1C=CC=C(C(=O)O)[C@@H]1O)C(=O)O,"Enterobactin synthase component B (entB, Escherichia coli, UniProt P0ADI4)","isochorismatase activity, substrate, LDH-coupled",,"together with: 2,3-dihydroxybenzoate 0 µM",,apparent Km,9.2 µM
Cn1c(=S)c2[nH]c(SCCCc3ccccc3)nc2n(C)c1=O,"PGR (Homo sapiens, UniProt P06401)","reporter gene, antagonist, MMTV-luciferase",T47D/A1-2,"10 µM, 24 h, together with: 5 nM progesterone",relative to: maximal activity,remaining activity,68%
COc1cc(C2CC(=O)Nc3nc(N)[nH]c(=O)c32)ccc1O (stereo not shown),"uncharacterized protein (Leishmania donovani, UniProt A0A3Q8IA09)",competitive ITC,,together with: glutamate 60 µM,,TΔS,-8.88 kcal/mol
CNc1ccccc1C(=O)O[C@H]1C[C@H](n2cnc3c(N)ncnc32)O[C@@H]1COP(=O)(O)OP(=O)(O)O,"Unconventional myosin-Va (Gallus gallus, UniProt Q02440, D297C/G292C/I296C/S293C/V295G)",stopped-flow FRET,,"15 °C, together with: EDTA 4 mM",,dissociation rate constant,42.2 ± 0.6 s⁻¹
O=C(Nc1ccccc1)Nc1cccc2[nH]ccc12,SNCA,"fibril formation, ThT fluorescence kinetics",,"100 µM, α-syn 2 µM, plateau phase",relative to: DMSO vehicle,maximum ThT fluorescence,10 ± 2%
CC(C)CC(NC(=O)C(NC(=O)NC(C(=O)O)C(C)C)C1CCNC(=N)N1)C(=O)NCCCNC(C(=O)O)C(OC1OC(CN)C(O)C1O)C1OC(n2ccc(=O)[nH]c2=O)C(O)C1O (stereo not shown),"mraY (Aquifex aeolicus, UniProt O66465, N255A)",ITC,,N255A mutant,,ΔH,-7.6 ± 0.3 kcal/mol
C=CC(=O)N1C[C@H](C)N(c2nc(OC[C@@]34CCCN3C[C@H](F)C4)nc3c(F)c(-c4ccc(F)c5sc(N)c(C#N)c45)c(C(F)(F)F)cc23)C[C@H]1C,"GTPase KRas (KRAS, Homo sapiens, UniProt P01116, G12C)",,MIA PaCa-2 and SW1463,20 nM,,time to Cys12 engagement,≤ 30 min
CCCCCCCCNP(=O)(OCCCCCCCC)O[C@@H]1O[C@H](CO)[C@@H](O)[C@H](O)[C@H]1F (mixture of isomers),"GBA1 (Homo sapiens, UniProt P04062)","enzyme activity, irreversible inhibitor",,"pH 5.5, 37 °C, together with: 2,4-dinitrophenyl beta-D-glucopyranoside",,inactivation rate constant,7.45 min⁻¹
CC(C)[C@H](NC(=O)[C@H](CCCCN)NC(=O)[C@H](C)NC(=O)[C@H](CCCCN)NC(=O)CNC(=O)[C@H](CCCNC(=N)N)NC(=O)[C@@H](NC(=O)[C@H](CCCCN)NC(=O)[C@@H](N)CO)[C@@H](C)O)C(=O)N[C@H](C(=O)NCC(=O)N[C@@H](CCCNC(=N)N)C(=O)N[C@@H](Cc1c[nH]c2ccccc12)C(=O)N[C@@H](CCCCN)C(=O)O)[C@@H](C)O,"TPM1/ACTA1, with F-actin (Oryctolagus cuniculus, UniProt P58772+P68135)","binding, LSPR",,"pH 7.0, together with: F-actin-tropomyosin filaments",,kon,5270 ± 532 M⁻¹ s⁻¹
C=C1CN(S(=O)(=O)c2ccc(C)cc2)CCCN(Cc2ccccc2)CCCN(S(=O)(=O)c2ccc(C)cc2)C1,"DnaJ homolog subfamily C member 3 (DNAJC3, Homo sapiens, UniProt Q13217)",SILAC mass spectrometry,"SUP-T1, crude membrane fraction","10 µM, 17 h, forward labelling",relative to: DMSO over compound,protein level ratio,2.16
COc1cc(C(=O)NC2CCC(N3CCN(CC4CCC5(CCCC5)C4)CC3)CC2)c(F)cc1Nc1ncc2c(n1)N(C1CCCC1(F)F)CC(F)(F)C(=O)N2C (stereo not shown),"NTRK3 (Homo sapiens, UniProt Q16288)","cell-free assay, TR-FRET",,10 µM,,inhibition,5.03%
CCCC[C@H](C)/C=C(C)/C=C/C(=O)O,"TRPA1 (Homo sapiens, UniProt O75762)","ion current, inhibitor, whole-cell patch clamp",HEK-293T,"5 µM, -100 mV, together with: 100 µM AITC",,current density,-25 ± 6.1 pA/pF
CCCCCCCCCCCSc1nc2c([nH]1)c(=O)n(C)c(=S)n2C,"Nr3c1 (Rattus norvegicus, UniProt P06536)","reporter gene, antagonist, MMTV-luciferase",T47D/A1-2,"10 µM, 24 h, together with: 5 nM dexamethasone",relative to: maximal activity,remaining activity,95%
CC(C)(C)CCN1C[C@@H]2[C@@H](CNC(=O)c3cc(Cl)cc(Cl)c3)[C@@H]2C1.Cl,"CACNA1C (Oryctolagus cuniculus, UniProt P15381)",whole-cell patch clamp,"HEK-293T, transfected",,,Hill slope,0.8 ± 0.11
CC1=NN(c2ccccc2)C(=O)/C1=C\c1ccc(-c2cc(C(=O)O)ccc2Cl)o1,"Kelch-like ECH-associated protein 1 (Mus musculus, UniProt Q9Z2X8)",ligand-detected NMR,,"50 µM, protein 5 or 2.5 µM",,binding,binds
CCCCCCCC(=O)Nc1ccc(OC)nc1,CES2,substrate,,"50 µM, pH 8, 37 °C, enzyme purity 4%",,specific activity,21 pmol/min/µg
CC[C@H](C)[C@H](NC(=O)[C@H](CCC(N)=O)NC(=O)[C@@H](NC(=O)[C@H](CO)NC(=O)CNC(=O)CNC(=O)CNC(=O)[C@@H]1CCCN1C(=O)[C@@H](NC(=O)[C@H](Cc1c[nH]cn1)NC(=O)[C@H](CCCCN)NC(=O)[C@H](CCCCN)NC(=O)CNC(=O)CNC(=O)CNC(=O)[C@@H](N)CSC1CC(=O)N(c2ccc3c(c2)C(=O)OC32c3ccc(N(C)C)cc3Oc3cc(N(C)C)ccc32)C1=O)C(C)C)C(C)C)C(=O)N[C@H](C(=O)N[C@@H](Cc1ccc(O)cc1)C(=O)N[C@@H](CCCCN)C(=O)N1CCC[C@H]1C(=O)N[C@H](C(=O)N[C@@H](CC(=O)O)C(=O)N[C@@H](CC(C)C)C(=O)O)C(C)C)C(C)C (stereo partly shown),microtubules (porcine),"competition with TMR-peptide, fluorescence ratio",,"concentration not given, compound added after, together with: taxol",,taxol binding,no effect
N=C(N)NCCC[C@H](NC(=O)[C@H](CC(=O)O)NC(=O)[C@@H]1CSCC(=O)NCC(=O)N[C@@H](Cc2c[nH]cn2)C(=O)N[C@H](Cc2ccccc2)C(=O)N[C@@H](CCCNC(=N)N)C(=O)N[C@H](Cc2c[nH]c3ccccc23)C(=O)N1)C(=O)N[C@@H](Cc1ccccc1)C(=O)NCC(N)=O,"MC5R (Homo sapiens, UniProt P33032)","cAMP accumulation, agonist",HEK293 expressing MC5R,10 µM,relative to: MT-II,activation,0%
CCCCOc1ccc(C(=O)OCC[N+]2(C)CC=CCC2)cc1 (stereo not shown),"CHRM2 (Homo sapiens, UniProt P08172)","antagonist, item: inositol phosphates",CHO co-expressing G15,together with: carbachol,,cooperativity factor,0.0014 ± 0.0002
COc1ccc(NC(C)=O)c(C)n1,CES2,substrate,,"50 µM, pH 8, 37 °C, enzyme purity 4%",,specific activity,< 1 pmol/min/µg
O=C(NO)c1ccc(Cn2sc3ccccc3c2=O)cc1,"HDAC6 (Homo sapiens, UniProt Q9UBN7)",enzyme activity,,50 nM,,Vmax,5.9 nM/min/mg

# A few entries again:
Compound,target,test,test system,setting,how to read,endpoint,result
CCCCCCCC(=O)Nc1ccc(OC)nc1,CES2,substrate,,"50 µM, pH 8, 37 °C, enzyme purity 4%",,specific activity,21 pmol/min/µg
O=C(NO)c1ccc(Cn2sc3ccccc3c2=O)cc1,"HDAC6 (Homo sapiens, UniProt Q9UBN7)",enzyme activity,,50 nM,,Vmax,5.9 nM/min/mg
CCCCCCCCCCCSc1nc2c([nH]1)c(=O)n(C)c(=S)n2C,"Nr3c1 (Rattus norvegicus, UniProt P06536)","reporter gene, antagonist, MMTV-luciferase",T47D/A1-2,"10 µM, 24 h, together with: 5 nM dexamethasone",relative to: maximal activity,remaining activity,95%
